Results collected from several papers.
Each line is one published result; not all experiments were run side by side. “And” joins repeats or separate records; there may be more than shown. ± marks the error that the study gave.
GAP50: Glideosome-associated protein 50 (GAP50, Plasmodium falciparum, UniProt Q8I2X3)
FFAR4: Free fatty acid receptor 4 (FFAR4, Homo sapiens, UniProt Q5NUL3)
TRPM8: Transient receptor potential cation channel subfamily M member 8 (TRPM8, Homo sapiens, UniProt Q7Z2W7)
CXCR4: C-X-C chemokine receptor type 4 (CXCR4, Homo sapiens, UniProt P61073)
NADH dehydrogenase [ubiquinone] iron-sulfur protein 7, mitochondrial/NADH dehydrogenase [ubiquinone] iron-sulfur protein 2, mitochondrial/MT-ND1: NADH dehydrogenase [ubiquinone] iron-sulfur protein 7, mitochondrial/NADH dehydrogenase [ubiquinone] iron-sulfur protein 2, mitochondrial/MT-ND1 (Homo sapiens, UniProt O75251+O75306+P03886)
Kir3.1/Kir3.2: Kir3.1/Kir3.2 (Homo sapiens, UniProt P48051+P48549)

Structure (SMILES)	target	test	system	setting	scale	quantity	result
O=C(Nc1ccccc1-c1nc2c(C(=O)O)cccc2o1)c1ccccc1	GAP50	binding, surface plasmon resonance		1:1 binding model		koff	0.00182 s⁻¹
OC[C@H]1OC(O)[C@H](O)[C@@H](O)[C@@H]1O (some centres unmarked)	Hexokinase-3 (HK3, Homo sapiens, UniProt P52790, N221A)			concentration not given	baseline: wild type	substrate inhibition fold reduction	30 fold
Nc1ncnc2c1ncn2[C@@H]1O[C@H](COP(=O)(O)OP(=O)(O)O)[C@@H](O)[C@H]1O	GUK1 (Homo sapiens, UniProt Q16774)	ITC		concentration not given, added: ATPγS		ΔG of binding	-6.81 kcal/mol and -6.82 kcal/mol and -6.61 kcal/mol
CCOc1cc(-c2nncn2C)ccc1Nc1ncc2cc(C)nc(NCC(C)(C)C)c2n1	Serine/threonine-protein kinase 17A (STK17A, Homo sapiens, UniProt Q9UEE5)	binding, LanthaScreen binding		1 µM		displacement	23%
c1ccc(C(NCc2cccnc2)(c2ccccc2)c2ccccc2)cc1	Potassium voltage-gated channel subfamily KQT member 1, with KCNE1 (KCNQ1, Homo sapiens, UniProt P51787)	IKs		300 pM, with KCNE1		activation time constant	2 ± 0.5 s
Cc1cc2c(c(=O)[nH]1)C(=O)O/C2=C\c1ccccc1OC(C)C	Dual specificity calcium/calmodulin-dependent 3',5'-cyclic nucleotide phosphodiesterase 1C, isoform PDE1C2 (PDE1C, Homo sapiens, UniProt Q14123)	enzyme activity, inhibitor		added: 3H-cGMP substrate		binding free energy	-9.08 kcal/mol
NCc1ccc(F)cc1	Amine oxidase [flavin-containing] A (MAOA, Homo sapiens, UniProt P21397)	substrate		pH 9.0, α,α-protio substrate		kcat	0.3 ± 0.0055 s⁻¹
Cc1nc(CSc2nc(SCc3ccc(C(C)C)cc3)nc(=O)[nH]2)cs1	DNA topoisomerase 2-alpha (TOP2A, Homo sapiens, UniProt P11388)	decatenation		31.25 µM, replicate 1		decatenated DNA	24%
CCCCCCCNc1cc(=O)[nH]c(=O)[nH]1	FFAR4	antagonist, β-arrestin recruitment	CHO cells	10 µM, added: 4 µM TUG-891		inhibition	18 ± 1%
COc1ccc(F)cc1C(=O)NCc1ccc(-c2nn([C@@H](C)C(F)(F)F)c(N)c2C(N)=O)cc1	Tyrosine-protein kinase BTK, SH3-SH2-kinase domains (BTK, Homo sapiens, UniProt Q06187)	differential scanning fluorimetry		added: BTK inhibitor 100 µM		melting temperature	54.5 °C
NC(=O)c1sc(-c2ccccc2)cc1NC(=O)c1cccs1	3-oxoacyl-[acyl-carrier-protein] reductase FabG (fabG, Pseudomonas aeruginosa, UniProt O54438)	enzyme activity, inhibitor, NADPH fluorescence		reverse reaction, added: 3-OH-decanoyl-NAC, NADP		Hill slope	0.7
CCC(=O)NS(=O)(=O)c1ccc(-c2c(-c3ccccc3)noc2C)cc1	Nuclear receptor subfamily 4 group A member 2 (Homo sapiens, UniProt P43354)	reporter gene, full-length homodimer NurRE reporter		50 µM	baseline: vehicle	activation	0.53 fold
CN(C)S(=O)(=O)c1ccc2c(c1)/C(=C/c1cc3c([nH]1)CCCC3)C(=O)N2	TRPM8	antagonist	HEK293	5 µM	baseline: control	remaining activity	93.1 ± 3.83%
NCCCCC(=O)O	Sodium- and chloride-dependent taurine transporter (SLC6A6, Homo sapiens, UniProt P31641, G62A)	binding, microscale thermophoresis		30.5 nM, room temperature, added: 50 nM labelled protein	higher = more binding	normalised MST signal	-0.00668
Nc1ncnc2c1ncn2[C@@H]1O[C@H](COP(=O)(O)OP(=O)(O)OP(=O)(O)O)[C@@H](O)[C@H]1O	Creatine kinase U-type, mitochondrial (CKMT1A, Homo sapiens, UniProt P12532, E265D)	substrate, ADP-Glo luminescence		pH 8.5, forward reaction, E227D mutant, added: second substrate in excess		Km	80 ± 10 µM
N#CC(c1ccnc(NCCc2cccnc2)n1)c1nc2ccccc2s1 (centres unmarked)	TRPM8	antagonist	HEK293	5 µM	baseline: control	remaining activity	92.2 ± 1.51%
CC(C)NCCCC[C@@H]1NC(=O)[C@H](Cc2ccc(O)cc2)NC(=O)[C@H](Cc2ccccc2)NC(=O)CC[C@H](C(=O)N[C@@H](CCCCNC(C)C)C(=O)N[C@@H](CCCCNC(=O)[C@H](CCC(=O)O)NC(=O)[C@H](CCC(=O)O)NC(=O)[C@H](CCC(=O)O)NC(=O)CN2CCN(CC(=O)O)CCN(CC(=O)O)CC2)C(N)=O)NC(=O)CNC(=O)[C@H](Cc2ccc3ccccc3c2)NC(=O)[C@@H](CCCNC(=N)N)NC1=O [fluorine-18 labelled]	CXCR4	radioligand cell uptake	MM.1S cells			internalized fraction	0.07%
NC(=O)NOCCCCCCCCCCCCCCCC[P+](c1ccccc1)(c1ccccc1)c1ccccc1.O=C([O-])C(F)(F)F	NADH dehydrogenase [ubiquinone] iron-sulfur protein 7, mitochondrial/NADH dehydrogenase [ubiquinone] iron-sulfur protein 2, mitochondrial/MT-ND1	complex I-dependent respiration, Seahorse XF96	HCT-116	0.8 µM, 24 h	baseline: control	oxygen consumption rate	45.4 ± 1.48%
O=C1Nc2ccc(Br)cc2/C1=C/c1cc2c([nH]1)CCCC2	TRPM8	antagonist	HEK293	5 µM	baseline: control	remaining activity	100 ± 11.3%
Cc1nn(C2CCS(=O)(=O)C2)c(C)c1NC(=O)COc1ccc(Cl)cc1Cl (centres unmarked)	Kir3.1/Kir3.2	activator, thallium flux	HEK293	concentration not given		activity	inactive
O=C(COP(=O)(O)O)[C@@H](O)[C@H](O)[C@H](O)COP(=O)(O)O	Cleavage and polyadenylation specificity factor subunit 2 (Homo sapiens, UniProt Q9P2I0)	thermal proteome profiling, refers to: CPSF2	HepG2 cell lysate	concentration not given, 57 over 37 °C, mean	baseline: compound over control	thermal stability ratio	0.585

Structure (SMILES)	target	test	system	setting	scale	quantity	result
O=c1[nH]c(NCCCc2ccccc2)c(Br)c(=O)[nH]1	FFAR4	agonist, β-arrestin recruitment	CHO cells	10 µM		activation	0%
O=C(COc1ccc(Cl)cc1Cl)Nc1cc(C2CCC2)nn1CC(F)(F)F	Kir3.1/Kir3.2	thallium flux, activator	HEK293		baseline: standard compound	Emax	< 10%
O=C(O)CCCc1c[nH]c2ccccc12	Germin-like protein subfamily 3 member 1 (GLP1, Arabidopsis thaliana, UniProt P94040)	microscale thermophoresis	Arabidopsis protoplast extract	concentration not given		binding	binds
O=C(ON1C(=O)CCC1=O)c1cc(C(F)(F)F)cc(C(F)(F)F)c1	CD209 antigen (CD209, Homo sapiens, UniProt Q9NNX6)	covalent labelling, intact protein MS		10 µM		kobs	0.0573 min⁻¹
O[C@@H](c1cc(C(F)(F)F)nc2c(C(F)(F)F)cccc12)[C@H]1CCCCN1	GAP50	binding, surface plasmon resonance		1:1 binding model		koff	0.442 s⁻¹
C[N+]1(C)CCC[C@H]1C(=O)[O-]	uncharacterized protein (Pelagibacter ubique, UniProt Q4FKZ8)	differential scanning fluorimetry	Candidatus Pelagibacter ubique	in-house screen		thermal shift	11.5 °C
NC(=O)NOCCCCCCCCCCCC[P+](c1ccccc1)(c1ccccc1)c1ccccc1.O=C([O-])C(F)(F)F	NADH dehydrogenase [ubiquinone] iron-sulfur protein 7, mitochondrial/NADH dehydrogenase [ubiquinone] iron-sulfur protein 2, mitochondrial/MT-ND1	complex I-dependent respiration, Seahorse XF96	HCT-116	5 µM, 24 h	baseline: control	oxygen consumption rate	1.55 ± 5.5%
O=c1cc(NCCc2ccc(Cl)cc2Cl)[nH]c(=O)[nH]1	FFAR4	agonist, β-arrestin recruitment	CHO cells	10 µM	baseline: 30 µM TUG-891	agonist effect	1 ± 1%
c1ccc(C[C@@H]2CN(c3nccc(Oc4ccc(-n5ccnc5)cc4)n3)CCN2)cc1	GAP50	binding, surface plasmon resonance		1:1 binding model		kon	15500 M⁻¹ s⁻¹
CCCCCCCNc1[nH]c(=O)[nH]c(=O)c1N=O	FFAR4	agonist, β-arrestin recruitment	CHO cells	10 µM		activation	0%
CCS(=O)(=O)N1CC(CC#N)(n2cc(-c3ncnc4[nH]ccc34)cn2)C1	Alpha-1-acid glycoprotein 1 (ORM1, Homo sapiens, UniProt P02763)	fluorescence quenching		298 K		Gibbs free energy	-6.14 kcal/mol
O=C(NCc1ccc(CNS(=O)(=O)c2ccccc2)cc1)c1ccccc1F	CXCR4	binding, inhibitor, competitive binding	MDA-MB-231	added: biotinylated TN14003		EC	1000 nM
Nc1ncnc2c1ncn2[C@@H]1O[C@H](CSCC[C@H](N)C(=O)O)[C@@H](O)[C@H]1O	O-methyltransferase (Sorghum bicolor, UniProt A0A1B6PFV1)	isothermal titration calorimetry		concentration not given, apo protein		ΔG of binding	-6.27 kcal/mol
Cc1cc(NCCc2ccccc2)nc(N=C(N)Nc2ccc(Cl)cc2)n1	GAP50	binding, surface plasmon resonance		1:1 binding model		kon	3260 M⁻¹ s⁻¹
O=C(NC1CCC1)c1ccc2nc(-c3cccc(NS(=O)(=O)NCCN4CCCCC4)c3)cn2c1	Protein ENL (MLLT1, Homo sapiens, UniProt Q03111)	degrader, immunoblot, refers to: MLLT1		10 µM, 2 h	baseline: DMSO control	protein level	19%
COC(=O)c1ccc(NC(=O)COc2ccc(Cl)cc2Cl)s1	Kir3.1/Kir3.2	activator, thallium flux	HEK293	concentration not given		activity	inactive
O=c1cc(NCCc2ccccc2Cl)[nH]c(=O)[nH]1	FFAR4	agonist, β-arrestin recruitment	CHO cells	10 µM	baseline: 30 µM TUG-891	agonist effect	0%
O=C1NC(=O)/C(=C/c2ccc3nccnc3c2)S1	TRPM8	antagonist	HEK293	5 µM	baseline: control	remaining activity	110 ± 8.03%
CCCCCCCCNc1c[nH]c(=O)[nH]c1=O	FFAR4	antagonist, β-arrestin recruitment	CHO cells	10 µM		inhibition	38 ± 4%
Nc1nc2c(ncn2[C@@H]2O[C@H](COP(=O)(O)O)[C@@H](O)[C@H]2O)c(=O)[nH]1	GUK1 (Homo sapiens, UniProt Q16774, S37P)	enzyme activity, NADH-coupled		31.25 µM		reaction rate	0.0225 s⁻¹ and 0.557 s⁻¹ and 1.69 s⁻¹

Repeated from above:
Structure (SMILES)	target	test	system	setting	scale	quantity	result
c1ccc(C(NCc2cccnc2)(c2ccccc2)c2ccccc2)cc1	Potassium voltage-gated channel subfamily KQT member 1, with KCNE1 (KCNQ1, Homo sapiens, UniProt P51787)	IKs		300 pM, with KCNE1		activation time constant	2 ± 0.5 s
Cc1cc2c(c(=O)[nH]1)C(=O)O/C2=C\c1ccccc1OC(C)C	Dual specificity calcium/calmodulin-dependent 3',5'-cyclic nucleotide phosphodiesterase 1C, isoform PDE1C2 (PDE1C, Homo sapiens, UniProt Q14123)	enzyme activity, inhibitor		added: 3H-cGMP substrate		binding free energy	-9.08 kcal/mol
NCc1ccc(F)cc1	Amine oxidase [flavin-containing] A (MAOA, Homo sapiens, UniProt P21397)	substrate		pH 9.0, α,α-protio substrate		kcat	0.3 ± 0.0055 s⁻¹
Cc1nc(CSc2nc(SCc3ccc(C(C)C)cc3)nc(=O)[nH]2)cs1	DNA topoisomerase 2-alpha (TOP2A, Homo sapiens, UniProt P11388)	decatenation		31.25 µM, replicate 1		decatenated DNA	24%
CCCCCCCNc1cc(=O)[nH]c(=O)[nH]1	FFAR4	antagonist, β-arrestin recruitment	CHO cells	10 µM, added: 4 µM TUG-891		inhibition	18 ± 1%
COc1ccc(F)cc1C(=O)NCc1ccc(-c2nn([C@@H](C)C(F)(F)F)c(N)c2C(N)=O)cc1	Tyrosine-protein kinase BTK, SH3-SH2-kinase domains (BTK, Homo sapiens, UniProt Q06187)	differential scanning fluorimetry		added: BTK inhibitor 100 µM		melting temperature	54.5 °C
NC(=O)c1sc(-c2ccccc2)cc1NC(=O)c1cccs1	3-oxoacyl-[acyl-carrier-protein] reductase FabG (fabG, Pseudomonas aeruginosa, UniProt O54438)	enzyme activity, inhibitor, NADPH fluorescence		reverse reaction, added: 3-OH-decanoyl-NAC, NADP		Hill slope	0.7
